Results pooled from the literature.
Protocols differ between the studies behind these lines. Values joined by “and” are separate records of one study, mostly repeats; a detail may differ. ± marks the error that the study gave.

| Structure (SMILES) | system | conditions | how to read | endpoint | result |
| --- | --- | --- | --- | --- | --- |
| CC(C)[C@@H]1NC(=O)CNC(=O)[C@H](CC(N)=O)NC(=O)[C@H](CCCNC(=N)N)NC(=O)[C@H](Cc2ccc(O)cc2)NC(=O)[C@H](C(C)C)NC(=O)[C@@H](NC(=O)[C@@H](NC(=O)[C@H](CC(N)=O)NC(=O)[C@H](Cc2c[nH]c3ccccc23)NC(=O)[C@H](C)NC(=O)[C@H](Cc2ccccc2)NC(=O)CN)C(C)C)CSSC[C@@H](C(=O)N[C@@H](Cc2cnc[nH]2)C(=O)N[C@@H](CCCNC(=N)N)C(=O)N[C@@H](CCCNC(=N)N)C(=O)N[C@@H](C)C(=O)N[C@@H](CC(N)=O)C(N)=O)NC(=O)[C@H](C(C)C)NC(=O)[C@H](CCCNC(=N)N)NC1=O | ICR mouse | ip, 10 mg/kg | direction not given | body posture score | 0 |
| N.N.[Cl][Pt][Cl] | mouse xenograft model | dose not given, day 10 |  | body weight | 17 g and 23 g and 21 g and 16 g and 18 g and 19 g |
| Cc1c(C(=O)O)ccc2c3n(nc12)[C@@H]1[C@H](C3)N(CC2CC2)[C@@]2(C(=O)Nc3cc(Cl)ccc32)[C@H]1c1cccc(Cl)c1F | mouse | dose not given, either dosing schedule |  | body weight change | not toxic |
| CC(=O)c1c(C)c2cnc(Nc3ccc(C4CCN(CCS(C)(=O)=O)CC4)cn3)nc2n(C2CCCC2)c1=O | mouse SW-620 xenograft | 80 mg/kg twice daily |  | body weight loss | < 10% |
| N.N.[Cl][Pt][Cl] | nude mouse MCF7 xenograft | 5 mg/kg, day 6 |  | body weight | 15.1 ± 0.74 g |
| COc1cccc2c1C(=O)c1c(O)c3c(c(O)c1C2=O)C[C@@](O)(C(=O)CO)C[C@@H]3O[C@H]1C[C@H](N)[C@H](O)[C@H](C)O1 | CD-1 mouse | intravenous, 5 mg/kg | negative means weight gain | body weight loss | -17.7% |
| CC(C)C[C@H](NC(=O)CN)C(=O)N[C@@H](CCCCN)C(=O)N[C@@H](CCCCN)C(=O)N[C@@H](CC(C)C)C(=O)N[C@@H](CC(C)C)C(=O)N[C@@H](CC(C)C)C(=O)N[C@@H](CC(C)C)C(=O)N[C@@H](CC(C)C)C(=O)N[C@@H](CCCCN)C(=O)N[C@@H](CCCCN)C(=O)N[C@@H](CC(C)C)C(=O)NCC(=O)NCC(=O)NCC(=O)N[C@@H](Cc1ccc(O)cc1)C(=O)N[C@H](C(=O)N[C@@H](CC(C)C)C(=O)N[C@@H](CO)C(=O)N[C@@H](CC(=O)O)C(=O)N[C@@H](CCCNC(=N)N)C(=O)N[C@@H](CO)C(=O)N[C@@H](Cc1c[nH]cn1)C(=O)N[C@@H](CC(N)=O)C(=O)N1CCC[C@H]1C(=O)N[C@@H](Cc1ccccc1)C(=O)N[C@@H](CC(N)=O)C(=O)O)[C@@H](C)O | C57BL/6 mouse | intraperitoneal, 40 mg/kg, 5 days | baseline: untreated | body weight | no effect |
| CCCCc1nc2cc(/C=C/C(=O)NO)ccc2n1CCN(CC)CC | mouse, MOLM-13 subcutaneous xenograft | 125 mg/kg every other day, day 7 | baseline: baseline | body weight | 99.5% |
